# Measured values pooled from the literature.
# Each numbered part is a random draw from the data of one study; scales do not carry over between parts. Changes are numbered by the printed parent chain.

# Study 1
# Target: Centromere-binding protein 1, full length, N-terminal tag (CBF1, Saccharomyces cerevisiae, UniProt P17106, residues 1-351)
# UniProt P17106, sequence (whole entry, looked up): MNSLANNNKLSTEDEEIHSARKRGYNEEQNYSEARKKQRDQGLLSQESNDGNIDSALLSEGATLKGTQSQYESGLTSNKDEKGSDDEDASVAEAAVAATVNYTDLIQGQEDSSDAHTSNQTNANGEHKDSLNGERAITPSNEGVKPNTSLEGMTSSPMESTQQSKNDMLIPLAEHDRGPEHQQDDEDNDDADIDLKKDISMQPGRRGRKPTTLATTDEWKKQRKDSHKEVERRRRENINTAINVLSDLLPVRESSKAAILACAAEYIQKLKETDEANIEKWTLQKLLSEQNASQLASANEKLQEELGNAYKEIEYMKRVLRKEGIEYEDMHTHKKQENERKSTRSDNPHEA
# Technique: protein-binding microarray
# Molecule type: double-stranded DNA, one strand shown
# Matrix: in vitro
# Tested at: 0.8 µM
# Notes: whole 60-bp probe, no competitor
# Reading: higher = stronger binding
# All sequences stand within: … GTCTTGATTCGCTTGACGCTGCTG
Strand,fluorescence intensity
CTAACTCTGCATCAGCACGCGGGCTCTGGAAGGTTC,538 a.u.
GAATAGAAGAGTGTGCACATGCTTGGTTTGGCGTAG,798 a.u.
GAACCTAAACAACCACACGGGGTTAAGCAAGAATAG,577 a.u.
GAAGAGGGATCACATCACGATACTATTGTTTCTTAG,799 a.u.
GAATTGAAAAGATGGAACGTGCTGCTGCTGATGTAG,654 a.u.
CTAATGGAGTTTTCAAACGTGGAACAAAGAACCTTC,549 a.u.
GAATCTCTGACTGGACTGATGATGTTGAAGCCCTAG,547 a.u.
GAATATCAAATTGGTCACCTTACTTGGCAAGGCTAG,628 a.u.
CCTAACTACTATATTGACGTGTAATAGCTTCGTACA,529 a.u.
GAATAGCAGCTTACATAGGTGGTGGCACTACCATAG,485 a.u.
CCTAACTACTATATTCACGTAGAATAGCTTCGTACA,623 a.u.
GAAGGAAAAAGGTGTCACGTGATCAGATGGTCTTAG,53500 a.u.
TGTACGAAGCTATAGCACATGCTTATAGTAGTTAGG,701 a.u.
CCTAACTACTATAATCAGGTGATATAGCTTCGTACA,2300 a.u.
CTATGAAGATAGTGCAACACGTCTGGTGATATCTTC,590 a.u.
GAAGTAACAAAAAATCAGGTGAGTAATATCAGTTAG,936 a.u.
CTAATCTGTCAGCAACATCAGTTGTGTGAGCAATTC,543 a.u.
GAACCTGTCCTGTGGAGCCTGATGTAAATCAAATAG,599 a.u.

# Study 2
# Target: Fragile X messenger ribonucleoprotein 1, C-terminal low-complexity region (Fmr1, Mus musculus, UniProt P35922)
# Technique: RNA Bind-n-Seq
# Molecule type: RNA
# Matrix: in vitro
# Tested at: 200 nM
# Notes: whole 134-nt RNA, ends assumed
# Together with: 150 mM LiCl
# Baseline: input library
# Reading: higher = stronger binding
# Each molecule: 7-deaza-guanosine replaces G
# All sequences stand within: GGGAGUUCUACAGUCCGACGAUC … UGGAAUUCUCGGGUGUCAAGG
Strand,log2 enrichment
AAGUCCUGUGCUACACAUCGUAUGUACCGAAUCGGUUUUUUUGGAAAAAGGUUUGGAAAGUAUUAUGUUACGCCGUUCGGAUCUGCACUU,-3.74
AAACUUUAGAGGAGGAUCUGAUGGAUAUGGCAGUGGACGUGGAUUUGGGGAUGGCUAUAAUGGGUAUGGAGGAGGACCUGGAGGUGGCAA,0.2
CCUCAAGUCCUGUGCUACACAUCGUAUGUACCGAAUCGGGGCGGCGGCGGGGAAAGUAUUAUGUUACGCCGUUCGGAUCUGCACUUCCAG,-0.55
ACCAUGCAGGUGGGCAUCUUUAAAAAGUGGGGCAAGGGGGGGAUAGGGAGGGGGGUAACACUUUGGGAACAGGUGGUCCCAGGUCGUUUC,1.37
GUCCUGUGCUACACAUCGUAUGUACCGAAUCGGCCCCCGGGGCCCCCGGGCCCCCGGGGAAAGUAUUAUGUUACGCCGUUCGGAUCUGCA,-2.92
UCCUGUGCUACACAUCGUAUGUACCGAAUCGGGGUUUUUGGGUUUUUGGGUUUUUGGGGAAAGUAUUAUGUUACGCCGUUCGGAUCUGCA,-1.14
UGGCCCUGGUGGCAUGCGGGGAGGAAGAGGUGGCCUCAUGGAUCCUGGUGGUCCCGGUGGAAUGUUCAGAGGUGGCCGUGGUGGAGACAG,-0.752
UGGGAGGUGGAUUUUGUUUAUUUUUUUAGCUCAUUUCCAGGGGUGGGACUUUUUUUUUAAUAUGUGUCAUGAAUAAAGUUGUUUUUGAAA,-0.514
UCUCUCUCUUUCCCUCUAGGGUCACAUCUCCCAGGAAGAUCUCACUUCCCCACAGAAGCUCUUGGCCUGGCCUCCUGCAGUGCCACGCUC,1.74
UCAAGUCCUGUGCUACACAUCGUAUGUACCGAAUCGGUUUGGUGGUUUUUUUGGAAAGUAUUAUGUUACGCCGUUCGGAUCUGCACUUCC,-0.487
AAGUCCUGUGCUACACAUCGUAUGUACCGAAUCGGGGAGGGGUUUGGGGUUUGGGGAAAGUAUUAUGUUACGCCGUUCGGAUCUGCACUU,-0.937

# Study 3
# Target: UBE2T UBC core domain (UniProt Q9NPD8)
# Technique: yeast two-hybrid
# Matrix: yeast
# Notes: mostly zero background
# Baseline: not given
# Reading: higher = stronger interaction
# B1: ANKIB1 RING domain (UniProt Q9P2G1); chain LSPGDLDTSLCDICMCSISVFEDPVDMPCGHDFCRGCWESFLNLKIQEGEAHNIFCPAYDCFQLVPVDIIE
# B2: MSL2 RING domain (UniProt Q9HCI7); chain LLPYFRQSLSCCVCGHLLQDPIAPTNSTCQHYVCKTCKGKKMMMKPSCSWCKDYEQFEENKQ
# B3: NSMCE1 RING domain (UniProt Q8WV22); chain RETYPDAVKICNICHSLLIQGQSCETCGIRMHLPCVAKYFQSNAEPRCPHCNDYWPHEIPKV
# B4: RNF175 RING domain (UniProt Q8N4F7); chain LPTRSLSDNICAVCGQKIIVELDEEGLIENTYQLSCNHVFHEFCIRGWCIVGKKQTCPYCKEKVDLKRMIS
# B5: RFPL2 RING domain (UniProt O75678); chain MAALFQEASSCPVCSDYLEKPMSLECGCAVCLKCINSLQKEPHGEDLLCCCSSMVSRKNKIRR
# B6: RNF14 RING domain (UniProt Q9UBS8); chain IKCFNSKLFLCSICFCEKLGSECMYFLECRHVYCKACLKDYFEIQIRDGQVQCLNCPEPKCPSVATPGQVK
# B7: RNF149 RING domain (UniProt Q8NC42); chain EKGIDVDAENCAVCIENFKVKDIIRILPCKHIFHRICIDPWLLDHRTCPMCKLDVIKALGYW
# B8: RNF32 RING domain (UniProt Q9H0A6); chain SLLQGDSVQPCPICKEEFELRPQVLLSCSHVFHKACLQAFEKFTNKKTCPLCRKNQYQTRVIH
# B9: RNF5 RING domain (UniProt Q99942); chain ERGGAGATFECNICLETAREAVVSVCGHLYCWPCLHQWLETRPERQECPVCKAGISREKVVP
# B10: RNF4 RING domain (UniProt P78317); chain TGLRPSGTVSCPICMDGYSEIVQNGRLIVSTECGHVFCSQCLRDSLKNANTCPTCRKKINHKRYHP
# B11: TRIM35 RING domain (UniProt Q9UPQ4); chain PSRSFKEELLCAVCYDPFRDAVTLRCGHNFCRGCVSRCWEVQVSPTCPVCKDRASPADLRT
# B12: UBE4A RING domain (UniProt Q14139); chain LQQQEEETYADACDEFLDPIMSTLMCDPVVLPSSRVTVDRSTIARHLLSDQTDPFNRSPLTMDQIRPNTELKEKIQRWLAERKQQKEQLE
# B13: TRIM55 RING domain (UniProt Q9BYV6); chain TMDNLEKQLICPICLEMFTKPVVILPCQHNLCRKCASDIFQASNPYLPTRGGTTMASGGRFRCPSCRHEVVLDRHG
# B14: PHF7 RING domain (UniProt Q9BWX1); chain IQHGHVGEESCILCCEDLSQQSVENIQSPCCSQAIYHRKCIQKYAHTSAKHFFKCPQCNNRKEFPQEML
# Residues (chain): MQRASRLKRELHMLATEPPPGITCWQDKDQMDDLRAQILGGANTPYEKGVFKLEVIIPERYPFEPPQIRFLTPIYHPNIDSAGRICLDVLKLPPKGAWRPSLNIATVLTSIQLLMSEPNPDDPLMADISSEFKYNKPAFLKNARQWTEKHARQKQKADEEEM
Sequence,lacZ reporter activity
B1 (ANKIB1 RING domain),0
B2 (MSL2 RING domain),0
SYEDKSNDFVCPICFDMIEEAYMTKCGHSFCYKCIHQSLEDNNRCPKCNYVVDNIDHLY (COP1 RING domain (UniProt Q8NHY2)),0
B3 (NSMCE1 RING domain),0
B4 (RNF175 RING domain),0
B5 (RFPL2 RING domain),0
B6 (RNF14 RING domain),0
B7 (RNF149 RING domain),0
B8 (RNF32 RING domain),0
B9 (RNF5 RING domain),0
B10 (RNF4 RING domain),3290
B11 (TRIM35 RING domain),0
B12 (UBE4A RING domain),0
B13 (TRIM55 RING domain),0
B14 (PHF7 RING domain),0

# Study 4
# Target: Interferon regulatory factor 7, full length, phosphomimetic (IRF7, Homo sapiens, UniProt Q92985, residues 1-503, S101K/S471D/S472D/S475D/S476D/S477D/S483D/S484D/S487D)
# Technique: protein-binding microarray
# Molecule type: double-stranded DNA, one strand shown
# Matrix: in vitro
# Tested at: 250 nM
# Notes: 60-bp whole probe
# Together with: salmon DNA 0.4 mg/ml
# Baseline: random background probes
# Reading: higher = stronger binding
# All sequences stand within: GCCTAGCAC … GTCTTGATTCGCTTGACGCTGCTG
# Residues (chain): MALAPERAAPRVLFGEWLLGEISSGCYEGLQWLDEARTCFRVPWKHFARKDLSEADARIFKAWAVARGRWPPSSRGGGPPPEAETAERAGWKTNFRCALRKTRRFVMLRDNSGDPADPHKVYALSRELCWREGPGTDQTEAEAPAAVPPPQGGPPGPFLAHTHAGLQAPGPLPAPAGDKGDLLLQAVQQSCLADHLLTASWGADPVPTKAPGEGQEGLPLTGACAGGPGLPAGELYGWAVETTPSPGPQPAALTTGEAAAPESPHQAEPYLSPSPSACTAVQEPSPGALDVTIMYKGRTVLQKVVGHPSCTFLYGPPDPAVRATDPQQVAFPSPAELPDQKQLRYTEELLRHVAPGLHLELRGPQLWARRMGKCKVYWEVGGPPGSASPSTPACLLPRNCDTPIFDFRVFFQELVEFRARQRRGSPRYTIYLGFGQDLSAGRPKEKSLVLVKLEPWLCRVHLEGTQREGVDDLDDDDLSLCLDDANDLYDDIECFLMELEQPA
Strand,log fluorescence
TCAGGTCACTCTCTGGGACTGTGCTAG,-0.605 z-score
TTCATTATTGTTTCCTTCCTGTGCTAG,0.899 z-score
TTAGGACTGCTTTCCCTTTAGTGCTAG,1.87 z-score
GACGATTTCGGACTGGAGACGTGCTAG,0.22 z-score
GACGGTATCCTTTTCTTGACGTGCTAG,0.662 z-score
TGTGCTTTCCTGATGACCCTGTGCTAG,0.18 z-score
TTGGATTTCAGTCTCGATTAGTGCTAG,1.98 z-score
TTAGGTATGGGGTATCGGTTAGTGCTA,-0.0688 z-score
CAAGGAACTCAGAGATTTAAGTGCTAG,-0.309 z-score
TTAGGTTCCGGTTTTGGTTAGTGCTAG,6.48 z-score
TTAGAACTGAGACTTGATTAGTGCTAG,-0.251 z-score
GACGGACTGGACTTTCGCGACGTGCTA,-0.911 z-score
GACGATTTCGACTATCGGGACGTGCTA,0.633 z-score
TTAGGACTTGGGACTGGGTTAGTGCTA,-0.372 z-score
TTAGGTTTCCTTATCCTTTTGTGCTAG,3.07 z-score
TTAGGACTGGACTTGCGGTTAGTGCTA,-0.334 z-score
TTAGGACTGCTTTTCCTATAGTGCTAG,1.42 z-score
GACGGACTGGAATATCGGGACGTGCTA,-0.548 z-score
GACGATTTCGGTTTCGGGACGTGCTAG,7.28 z-score
GTGCCTTTTTTTTTTTTTCTGTGCTAG,0.803 z-score
GACGGTATCGGGTATCGGGACGTGCTA,0.607 z-score
CAGTTTCTCTTTCCTTCTTGGTGCTAG,9.57 z-score
ATGATTGGTTGAACATGAACGTGCTAG,-0.00416 z-score
TTAGGACAGGACACTGGGTTAGTGCTA,-0.462 z-score
TTAGGTCTCCTTTGCCTTTAGTGCTAG,0.438 z-score

# Study 5
# Target: CCNA2, cyclin fold, Cln2 fusion (human)
# Technique: yeast growth competition, sequencing
# Matrix: yeast
# Notes: strong parent motif
# Baseline: not given
# Reading: higher = stronger binding
# Starting sequence: PLK5 docking peptide (human); IFRKVGQRLLTQC
Substitution,normalised enrichment score
IARKVGQRLLTQC [F2A],1.31
IFRKVGQRLLAQC [T11A],1.63
IFAKVGQRLLTQC [R3A],1.51
IFRAVGQRLLTQC [K4A],1.62
IFRKAGQRLLTQC [V5A],1.07
AFRKVGQRLLTQC [I1A],1.16
IFRKVGQALLTQC [R8A],1.49

# For quick reference, copied from above (study 5):
Substitution,normalised enrichment score
IARKVGQRLLTQC [F2A],1.31
IFRKVGQRLLAQC [T11A],1.63
IFAKVGQRLLTQC [R3A],1.51
IFRAVGQRLLTQC [K4A],1.62
IFRKAGQRLLTQC [V5A],1.07
AFRKVGQRLLTQC [I1A],1.16
IFRKVGQALLTQC [R8A],1.49
